Measurements gathered from unrelated publications.
Lines come from different studies, so protocols differ. Values joined by “and” are separate records of one study, mostly repeats; a detail may differ. ± gives the spread as reported. No end group written: not given here.
B1: O-methyl-Tyr, C-amide; chain Y(Me)ECG-NH2 (N-terminus assumed; SMILES COc1ccc(C[C@H](N)C(=O)N[C@@H](CCC(=O)O)C(=O)N[C@@H](CS)C(=O)NCC(N)=O)cc1)

Molecule	cell line	assay	test system	setting	scale	endpoint	result
O=C(c1nc2ccccc2[nH]1)[C@H]1[C@H](c2ccc(Br)cc2)[C@H]2CCCN2[C@@]12c1ccccc1-c1nc3ccccc3nc12	WI-38 lung fibroblasts	cytotoxicity, MTT	medium with 10% FBS	72 h, dose at 100% viability		EC100	0.071 ± 0.001 µM
CC/C(=C(\c1ccccc1)c1ccc(OCCN(C)C)cc1)c1ccccc1	HeLa MMTV-βLa	cytotoxicity		72 h		EC50	8.8 µM
O=[N+]([O-])c1ccc(-n2nc(-c3cccs3)sc2=NN=Cc2cn(-c3ccccc3)nc2-c2ccccc2)cc1	Vero and A549	cytotoxicity			baseline: CC50 Vero over IC50 A549	selectivity index	74.6
C=C(C[C@H](N)C(=O)O)C(=O)NC1CC1	MCF7	necrosis		24 h		EC50	64.6 µM
O=[N+]([O-])c1ccc(-n2nc(-c3cccs3)sc2=NN=C2CCCc3ccccc32)cc1	Vero and A549	cytotoxicity			baseline: CC50 Vero over IC50 A549	selectivity index	70.4
B1	HeLa 705	WST-1		up to 100 µM, 24 h	baseline: untreated	viability	no effect
O=C(O)P(=O)(O)O	HepG2-NTCP	viability				CC50	> 25 µM
Cc1ccc2c(=O)n(Cc3cn(Cc4ccc(/C=C/C(=O)NO)cc4)nn3)cnc2c1	MRC5	cell growth or viability, MTT		48 h		IC50	48.1 µM
CC(=NN=c1sc(-c2cccs2)nn1-c1ccc([N+](=O)[O-])cc1)c1ccc2ccccc2c1	Vero and HepG2	cytotoxicity			baseline: CC50 Vero over IC50 HepG2	selectivity index	124
ALWGPDPAAA	HHD and preproinsulin transfected P815	chromium release	peptide	concentration not given, peptide-specific CD8+ T-cell clones		cytotoxicity	toxic
O=C1c2cccc3ccc4ccc5cccc1c5c4c23	HaCaT	EROD activity		10 µM, up to 24 h, with: 5 nM TCDD		inhibition	> 90%
O=C(NO)c1ccc(Cn2cc(Cn3cnc4ccccc4c3=O)nn2)cc1	MRC5	cell growth or viability, MTT		48 h		IC50	48.5 µM
C=C(C[C@H](N)C(=O)O)C(=O)NCc1ccccc1	MCF7	necrosis		24 h		EC50	> 316 µM
O=C(c1nc2ccccc2[nH]1)[C@H]1[C@H](c2ccco2)[C@H]2CCCN2[C@@]12c1ccccc1-c1nc3ccccc3nc12	WI-38 lung fibroblasts	cytotoxicity, MTT	medium with 10% FBS	72 h, dose at 100% viability		EC100	0.234 ± 0.006 µM
C=C(C[C@H](N)C(=O)O)C(=O)NCc1ccc(F)cc1	MCF7	necrosis		24 h		EC50	> 316 µM
Cn1c(C(=O)NCCCc2c[nH]c(N)n2)cc(Br)c1Br	HaCaT	MTT		overnight, 50% toxicity, 10% FBS		toxic concentration	492 µM
O=[N+]([O-])c1ccc(-n2nc(-c3cccs3)sc2=NN=C2CCCCCC2)cc1	Vero and HepG2	cytotoxicity			baseline: CC50 Vero over IC50 HepG2	selectivity index	105

Molecule	cell line	assay	test system	setting	scale	endpoint	result
salmon calcitonin	Calu-3 monolayer, air-liquid interface			1 mg/mL apical, 3 h, pH 7.4, 37 °C, with or without HTCC		compound share in apical compartment	100 ± 6.11%
O=C(c1nc2ccccc2[nH]1)[C@H]1[C@H](c2cccs2)[C@H]2CCCN2[C@@]12c1ccccc1-c1nc3ccccc3nc12	WI-38 lung fibroblasts	cytotoxicity, MTT	medium with 10% FBS	72 h, dose at 100% viability		EC100	0.11 ± 0.002 µM
Cc1ccc(C=NN=c2sc(-c3cccs3)nn2-c2ccc([N+](=O)[O-])cc2)cc1	Vero and A549	cytotoxicity			baseline: CC50 Vero over IC50 A549	selectivity index	95.7
C=C(C[C@H](N)C(=O)O)C(N)=O	MCF7	necrosis		24 h		EC50	151 µM
O=C(O[C@@H]1Cc2c(O)cc(O)cc2O[C@@H]1c1cc(O)c(O)c(O)c1)c1cc(O)c(O)c(O)c1	Caco-2 TC7		PBS	concentration not given, 3 h, pH 5, 37 °C	baseline: dose	cellular accumulation	1.35 ± 0.16%
N=C(N)NCCC[C@@H]1NC(=O)[C@H](Cc2ccc3ccccc3c2)NC(=O)[C@@H](Cc2ccccc2)NC(=O)[C@H](Cc2ccccc2)NC(=O)[C@H](CCC(N)=O)NC(=O)[C@@H](CCCNC(=N)N)NC(=O)[C@H](CCCNC(=N)N)NC(=O)[C@@H](CCCNC(=N)N)NC1=O	HeLa	flow cytometry		cytosolic entry	baseline: 1% over 10% FBS	serum effect on uptake	~25 fold
O=C(NO)c1ccc(Cn2cc(Cn3cnc4ccc(Cl)cc4c3=O)nn2)cc1	MRC5	cell growth or viability, MTT		48 h		IC50	11.9 µM
O=C(c1nc2ccccc2[nH]1)[C@H]1[C@H](c2ccccc2)[C@H]2CCCN2[C@@]12c1ccccc1-c1nc3ccccc3nc12	WI-38 lung fibroblasts	cytotoxicity, MTT	medium with 10% FBS	72 h, dose at 100% viability		EC100	0.086 ± 0.003 µM
O=[N+]([O-])c1ccc(-n2nc(-c3cccs3)sc2=NN=Cc2ccccc2)cc1	Vero and A549	cytotoxicity			baseline: CC50 Vero over IC50 A549	selectivity index	88.5
COc1cccc2c1C(=O)c1c(O)c3c(c(O)c1C2=O)C[C@@](O)(C(=O)CO)C[C@@H]3O[C@H]1C[C@H](N)[C@H](O)[C@H](C)O1	WI-38 cells	cell viability, MTT		72 h		maximum non-toxic concentration	11.5 ± 0.5 nM
O=C(c1cc(Cc2n[nH]c(=O)c3ccccc23)ccc1F)N1CCN(C(=O)C2CC2)CC1	MCF7	necrosis		24 h		EC50	> 316 µM
CCCCCCCCc1ccc(CC[C@](N)(CO)COP(=O)(O)O)cc1	primary human cardiac myocytes		supernatant	100 nM		time to phosphate metabolite detection	3 h
CC(=NN=c1sc(-c2cccs2)nn1-c1ccc([N+](=O)[O-])cc1)c1ccccc1	Vero and HepG2	cytotoxicity			baseline: CC50 Vero over IC50 HepG2	selectivity index	116
Oc1cc(O)c2c(c1)O[C@H](c1cc(O)c(O)c(O)c1)[C@H](O)C2	Caco-2 TC7		PBS	concentration not given, 3 h, pH 5, 37 °C, with: EGCG	baseline: dose	cellular accumulation	0.19 ± 0.02%
O=c1c2nc(Br)n([C@@H]3O[C@@H]4COP(=O)(O)O[C@H]4[C@H]3O)c2nc2[nH]c(-c3ccccc3)cn12	washed human platelets			concentration not given, 20 min, cell membrane permeability	baseline: applied	intracellular level	30% and ~30%
COc1cccc2c1C(=O)c1c(O)c3c(c(O)c1C2=O)C[C@@](O)(C(=O)CO)C[C@@H]3O[C@H]1C[C@H](N)[C@H](O)[C@H](C)O1	C2C12 cells	H2DCFDA flow cytometry		0.5 mM, 72 h	baseline: control	ROS level	1.09 fold

A few entries again:
Molecule	cell line	assay	test system	setting	scale	endpoint	result
O=C(O)P(=O)(O)O	HepG2-NTCP	viability				CC50	> 25 µM
ALWGPDPAAA	HHD and preproinsulin transfected P815	chromium release	peptide	concentration not given, peptide-specific CD8+ T-cell clones		cytotoxicity	toxic
O=[N+]([O-])c1ccc(-n2nc(-c3cccs3)sc2=NN=C2CCCCCC2)cc1	Vero and HepG2	cytotoxicity			baseline: CC50 Vero over IC50 HepG2	selectivity index	105
C=C(C[C@H](N)C(=O)O)C(=O)NCc1ccccc1	MCF7	necrosis		24 h		EC50	> 316 µM
salmon calcitonin	Calu-3 monolayer, air-liquid interface			1 mg/mL apical, 3 h, pH 7.4, 37 °C, with or without HTCC		compound share in apical compartment	100 ± 6.11%
O=C(NO)c1ccc(Cn2cc(Cn3cnc4ccccc4c3=O)nn2)cc1	MRC5	cell growth or viability, MTT		48 h		IC50	48.5 µM
